Measured values collected from several papers.
Numbered parts are unrelated; each lists some results of a single study. Changes are numbered by the printed parent chain.

Block 1 — target: DBP, bZIP domain (human); method: DHFR protein complementation; matrix: yeast; relative to: wild-type JUN-FOS pair; direction: higher = stronger binding
Notes: single substitutions, most at no-binding floor
Starting sequence: JUN, bZIP domain (human); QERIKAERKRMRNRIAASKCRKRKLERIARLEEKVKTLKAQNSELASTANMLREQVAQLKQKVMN; partner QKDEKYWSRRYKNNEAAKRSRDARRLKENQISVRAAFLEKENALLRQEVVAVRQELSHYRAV
`V56E` gave a binding fitness of -1.52 natural log.
The binding fitness of `A57N` is reported as -1.29 natural log.
`E32D` has a binding fitness of -1.59 natural log.

Block 2 — method: RNA Bind-n-Seq; form: RNA; matrix: in vitro; concentration: not given; relative to: input RNA pool; direction: higher = stronger binding
Target: RING finger protein unkempt homolog, zinc fingers 1-6, GST-SBP tag (UNK, Homo sapiens, UniProt Q9C0B0, residues 30-357)
Sequence of UniProt Q9C0B0 (30-357, looked up): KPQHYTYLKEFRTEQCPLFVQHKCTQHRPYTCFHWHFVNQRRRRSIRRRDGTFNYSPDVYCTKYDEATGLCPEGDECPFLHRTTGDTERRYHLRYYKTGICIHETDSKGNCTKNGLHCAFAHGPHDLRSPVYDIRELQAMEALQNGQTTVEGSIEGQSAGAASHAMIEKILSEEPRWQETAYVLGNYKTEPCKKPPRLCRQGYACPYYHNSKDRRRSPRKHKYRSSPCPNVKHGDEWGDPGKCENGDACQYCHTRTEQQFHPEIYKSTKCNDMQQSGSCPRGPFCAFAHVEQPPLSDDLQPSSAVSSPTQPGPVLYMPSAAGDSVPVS
Notes: RNA with constant flanks, human and mouse sites, ends assumed
The bound/input enrichment of `GGGAGUUCUACAGUCCGACGAUCGUAUAUGGUGGAAAUUUGUGGCUAGUGUGAUUUUUGUUUGUUUCCUUUUAAGUACUGUUGAUCAGUUGUGACACUUACUGGUUAAACUUACGUUGCUAAAGAUUUCUCUAUAAUAAGCCACAACAGAGGAUUGAGCAUCA` is reported as 0.498 ratio.
With `GGGAGUUCUACAGUCCGACGAUCACUUUUGGACUUGAUCAGUUGAAAACAAGAGAAGCCAUUGCCAUGCUACACAAAGAUGGCAUAGAAUUUGCUUUUAAAGAGCCUAAUCCGCAAGGGGAGAGCCAUCCACCUUUAAAUUUGCAACAGAGGAUUGAGCAUCA` the bound/input enrichment was 0.367 ratio.
For `GGGAGUUCUACAGUCCGACGAUCAGAAGGGUGUUUGCAGUUUUGCAGGCCUCUGUGGCCUGGGCUUUCUAUGCUGCGAAUAUUACUAGAAGCUGGAUUCCUUUAAGGAGACUUGUAGUGAAAAUGUUUGUCUGGAUGUUCCUCCAACAGAGGAUUGAGCAUCA`, the bound/input enrichment was 0.324 ratio.
The bound/input enrichment of `GGGAGUUCUACAGUCCGACGAUCAGUACUGGCAGUCGAGGCAGCUGCGGAUCAUCAGGAAGAACUGCUGAGAAAAGUGCUCAUAGUUUCAAGUCUGAUCAGGUGAAGGUCAAGCAGGAACCUGGGACUGAAGAAGAGAUAUGCCAACAGAGGAUUGAGCAUCA` is reported as 0.13 ratio.

Block 3 — method: universal PBM; form: double-stranded DNA, one strand shown; matrix: in vitro; concentration: not given; direction: higher = stronger binding
Target: Sal-like protein 4, full length isoform B (SALL4, Homo sapiens, UniProt Q9UJQ4-2, residues 1-616)
Notes: 8-mer, flanks averaged, mean of replicates
With `CGTGATCC` the E-score was -0.345.
The E-score of `TACAAACA` is reported as 0.225.
With `CATCCTCC` the E-score was -0.183.
The E-score of `AGCTGTAA` is reported as 0.0713.
The E-score of `ACACGTAG` is reported as -0.0103.

Further values, each from its own experiment
With `PhoQ, residues 284 288 289 292 302 303 GASLAW` the fold induction was 3.84 (PhoP, residues 12 14 15 18 19 NNFVT (Escherichia coli, UniProt P23836); Sort-seq, refers to: YFP reporter; E. coli; PhoQ-PhoP variant library, together with: 10 µM Mg2+; relative to: high Mg2+ state, higher = stronger signaling).

Repeated from above (block 3):
The E-score of `AGCTGTAA` is reported as 0.0713.
